Published values collected from several papers.
Compare with care: the assays were run in different laboratories. Numbers after ± are the reported error. Values after ≈ are worked out from the molar mass of the structure shown.
cyp121: Mycocyclosin synthase (cyp121, Mycobacterium tuberculosis, UniProt P9WPP7)

Protein sequences, listed by entry. Tags and fused reporters are not part of them.
UniProt P9WPP7, whole entry: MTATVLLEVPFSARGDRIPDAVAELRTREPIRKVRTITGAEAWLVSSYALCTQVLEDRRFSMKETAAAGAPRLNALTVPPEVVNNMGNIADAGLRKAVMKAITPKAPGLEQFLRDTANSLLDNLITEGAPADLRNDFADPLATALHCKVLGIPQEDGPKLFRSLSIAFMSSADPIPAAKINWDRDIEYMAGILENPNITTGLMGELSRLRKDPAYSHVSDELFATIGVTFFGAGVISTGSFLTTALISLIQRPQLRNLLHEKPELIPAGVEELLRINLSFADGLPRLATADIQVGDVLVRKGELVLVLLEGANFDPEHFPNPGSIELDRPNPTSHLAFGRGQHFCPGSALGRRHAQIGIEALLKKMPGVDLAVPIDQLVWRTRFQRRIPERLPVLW

SMILES	tested on	assay	system	conditions	endpoint	result
[2H]c1c([2H])c(S(=O)(=O)N2CCC([2H])(C(=O)Nc3ccc4cc(C(=O)O)ccc4c3)CC2)c(C([2H])([2H])[2H])c([2H])c1C([2H])([2H])[2H]			human liver microsomes		intrinsic clearance	< 5.8 µL/min/mg
O=C(NC1CCCCC1)Oc1ccc(O)c(-c2ccccc2)c1			mouse, brain	intraperitoneal, 1 mg/kg, single dose	Cmax	466 ± 96 pmol/g
Cc1nc2c[nH]c(/C=C/C=C/c3ccc(N(C)C)cc3)cn-2c1=O			Balb/c mouse, brain	intravenous, dose not given	brain washout time	≤ 60 min
C1c2c(-c3nnn[nH]3)n[nH]c2[C@@H]2C[C@H]12 (relative stereo)		Hargreaves test	wild-type mouse	subcutaneous, 10 mg/kg	heat withdrawal response	no effect
CCC(c1ccc(-c2ccc(O)c(Cl)c2)cc1)n1ccnc1 (stereo not shown)	cyp121	binding			Kd	19.4 ± 13.4 µM
COc1cccc2c(N3CCC(CCP(=O)(O)O)CC3)ncnc12			mouse, serum	intravenous, 10 mg/kg single dose, within 8 h	serum concentration	≤ 0.01 µM
O=C(NC1CCN(c2ncnc3[nH]cnc23)CC1)c1cccc(NS(=O)(=O)c2ccc(F)cc2)c1			mouse, plasma	oral, 70 mg/kg	AUC(0-t)	28.9 ng·h/mL
CN(CC(=O)N(Cc1ccc(C2CCCCC2)cc1)c1ccc(C(=O)NO)cc1)S(=O)(=O)c1c(F)c(F)c(F)c(F)c1F			CD-1 mouse, plasma	intraperitoneal, 20 mg/kg	Cmax	299 ± 74 ng/mL
CC(c1ccc(-c2ccc(C(F)(F)F)cc2)cc1)n1ccnc1 (stereo not shown)	cyp121	binding			Kd	8.6 ± 2 µM
CC(=O)N1CCC[C@@H]1C(=O)N[C@@H](C)C(=O)N[C@@H](Cc1ccccc1)B(O)O		nephelometry	phosphate buffer	pH 6.8	solubility	100 µM (≈ 37.5 µg/mL)
[11CH3]Nc1ccc(C(=O)C2CCN(C3Cc4ccccc4CC3O)CC2)cc1 (single isomer, unassigned)			1-octanol/phosphate buffer	pH 7.4	logD	2.6
Cc1cccc2c1[nH]c1c(-c3ccc(Cl)c(Cl)c3)nc(C(=O)NCCNCCO)cc12			human liver microsomes		half-life	5.33 h
COc1cc2c(cc1OC)C(=O)C(CC1CCN(Cc3cc(C=Cc4ccc(C=Cc5ccc(N(C)C)cc5)cc4)cc(OC)c3O)CC1)C2 (stereo not shown)			octanol/PBS	250 µM	log D	3 ± 0.1
C[C@@H]1CN(C)CCN1c1nc(-c2ccc(F)cc2)cs1			mouse, brain	intraperitoneal, 10 mg/kg	Cmax	3530 ng/g
CCCSc1nc(N[C@@H]2C[C@H]2c2ccc(F)c(F)c2)c2nnn([C@@H]3C[C@H](O)[C@@H](O)[C@H]3O)c2n1			female Wistar rat, plasma	oral, 180 mg/kg/day ticagrelor, 5 h, week 26, 2-year carcinogenicity study	plasma concentration	10 ± 4.4 µM
COc1ccc2c3c([nH]c2c1)[C@H](CC(C)C)N1C(=O)[C@H](CC(=O)OCc2ccccc2)NC(=O)[C@@H]1C3			human liver microsomes	20 µM, 60 min	remaining compound	9 ± 2%

Some of these lines once more:
SMILES	tested on	assay	system	conditions	endpoint	result
CC(=O)N1CCC[C@@H]1C(=O)N[C@@H](C)C(=O)N[C@@H](Cc1ccccc1)B(O)O		nephelometry	phosphate buffer	pH 6.8	solubility	100 µM (≈ 37.5 µg/mL)
[11CH3]Nc1ccc(C(=O)C2CCN(C3Cc4ccccc4CC3O)CC2)cc1 (single isomer, unassigned)			1-octanol/phosphate buffer	pH 7.4	logD	2.6
